Assay results collected from several papers.
A part holds a random share of what one study measured.

Set 1
Target: RNA binding protein fox-1 homolog 2, RRM domain, GST-SBP tag (RBFOX2, Homo sapiens, UniProt O43251-10, residues 100-194)
Technique: RNA Bind-n-Seq
Form: RNA
Matrix: in vitro
Tested at: 365 nM
Notes: natural RNA segment, single round, ends assumed
Relative to: no-protein control
Reading: higher = stronger binding
Endpoint: RBNS enrichment (R)
Shared flanks, not repeated: GGGAGUUCUACAGUCCGACGAUC … UGGAAUUCUCGGGUGCCAA
Residues (chain): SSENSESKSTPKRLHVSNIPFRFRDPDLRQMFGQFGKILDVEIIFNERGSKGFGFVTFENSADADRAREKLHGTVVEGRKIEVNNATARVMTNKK
Strand = UUGCAACCUCUUUUCGUGAUGGGCAGCCUGCUGGUCAGCACUCCAGUAGCGAGAGACGGCACCCAGAAUCAGAUCCCAGCUUCGGCAUUUGAUCAGACCAAACAGUGCUG; result = 1.56
Strand = UCAGCUCUGAAAGUCUAGGAAUAGUCUUUGUAACAUCUUAGCAGAUGUGUCCUUGUAUGCUGGUGGAUUCUUCUAGAAAGUAUUUUCUAUCUUGGUUGUAUUUGCUGCCA; result = 0.499
Strand = CAGACCGAGAGGCCAGUUGAUCUGCUCUGUUUUAUACUAGUGACAAUAAAGAUUAUUUUUUGAUACACCUAUGAGUUCUGUCUGGCAAGGCCUGGCUGGCUGAAUCAAGA; result = 0.33
Strand = UUUGUGCUUCUCAUGUAACAUUGGGAUUGUGUAGAUUUGAACCUUAUAACUUGAAUUUUAAAGAUAGUAGCAUUUUGAAGAUGCUUAAUAACCUUUUUAGGAAUAUGGAG; result = 0.379
Strand = AUCGGUUGGUCUUGCUAAUUGAAGCUCAGAAAAAUAUAGAUGGUCUCUCCCGACCCUGUUUGUGGUGUGUGCUGGCCUAUCAGGAUCUGGUUAGCCUUUGGAAUUUUUGU; result = 1.02
Strand = CUGUUUAUGCUCUCCCUGCCCCCAGGGAAACUGUUUAUUCUUUCAAAAGAAGCAAACAGCGUUCAUUUCUGCUCCUGUAAUGGAGAAACAGCCAGCUCCCCUGCAUCCCU; result = 0.989
Strand = UUUGGGUAGACAGUCUAAUUCAGUCCAAUUUUAAUCUGCAUUAAAAUAUGCAAUGCUAGACAAAGAUUUUCAAAAUAAAAAGCUAUUAUUUCAGAAAUUAUUUUAAAAGA; result = 0.521
Strand = GGCACCGGGCAGGGGCCAGUCCCUCAGCCCCUGGACCACUGGAGAAAAGGAAGACGAAGAGUUUGGAGCACCUCUCCCUAGCAUCCUCUCAGCUGGAGAGGCAGCAUUGG; result = 0.404
Strand = CUCCAGCCUGGGCAACAGAGUGAGGCCCUGUCUCAAACACAUAAAAGGCAGUGGCCCACGCCUGUAAUCCCAGCACUUUGGGAGGCCAAGGCGGGCAGAUCACGAGGUCA; result = 0.381
Strand = CUAUUCUCUCAGACGGUGGAAUAUUUGGAAAAAUUUUAAAACAAUUAAAAUUUUAAAGCAAUCUUGGCAGACUAAAACAAGUACAUCUGUACAUGACUGUAUAAUUACGA; result = 0.626
Strand = CUCUCCAAGUGGAAACGUGCUAACUUUUUCUGUAAAUCUGAAAUAAAAGGUGCUGUUCCUUCCUCUGACCCAGGACUGCUUUGUGUUUUCUGUCUUUCUCUCCAUGCAUU; result = 0.797
Strand = AAGAAGAAAAUGGAAGAAAAAGGGAAAAAAGCUAACCGGAUAACCAAUUUGUUAUAAGUUGGUUUUCAACAAAGAAAUUUAGCAGCCAAGUAAGGUUUCAAGGGAAUAUU; result = 1.04

Set 2
Target: Fragile X messenger ribonucleoprotein 1, C-terminal low-complexity region (Fmr1, Mus musculus, UniProt P35922)
Technique: RNA Bind-n-Seq
Form: RNA
Matrix: in vitro
Tested at: 200 nM
Notes: whole 134-nt RNA, ends assumed
With: 150 mM KCl
Relative to: input library
Reading: higher = stronger binding
Endpoint: log2 enrichment
Shared flanks, not repeated: GGGAGUUCUACAGUCCGACGAUC … UGGAAUUCUCGGGUGUCAAGG
Strand = AAGUCCUGUGCUACACAUCGUAUGUACCGAAUCGGUUUUUGGUUUUUUUGGAAAGGAAAGUAUUAUGUUACGCCGUUCGGAUCUGCACUU; result = -1.07
Strand = UCCUGUGCUACACAUCGUAUGUACCGAAUCGGGUUUUUUUGGGUUUUUGGGUUUUUGGGAAAGUAUUAUGUUACGCCGUUCGGAUCUGCA; result = 0.203
Strand = CAAGUCCUGUGCUACACAUCGUAUGUACCGAAUCGGUUUGGGGUUUGGGUUUGGGGAAAGUAUUAUGUUACGCCGUUCGGAUCUGCACUU; result = 0.0561
Strand = ACCAUGCAGGUGGGCAUCUUUGGGAAGUGGGGCAAGGGGGGGAUAGGGAGGGGGGUAAAACUUUGGGAACAGGUGGUCCCAGGUCGUUUC; result = 0.585
Strand = CCUCAAGUCCUGUGCUACACAUCGUAUGUACCGAAUCGGUUGGGGUUGGUUGGAAAGUAUUAUGUUACGCCGUUCGGAUCUGCACUUCCA; result = 0.0678
Strand = GUCCUGUGCUACACAUCGUAUGUACCGAAUCGGAAAAAGGUUUUUUUGGUUUUUUUGGAAAGUAUUAUGUUACGCCGUUCGGAUCUGCAC; result = -1.28
Strand = AGUCCUGUGCUACACAUCGUAUGUACCGAAUCGGGUUUUUGGGUUUUUGGGAAAGGGAAAGUAUUAUGUUACGCCGUUCGGAUCUGCACU; result = 0.28
Strand = CCUGUGCUACACAUCGUAUGUACCGAAUCGGAAAAAAGGGGAAAAAAGGGAAAAAAGGGGAAAGUAUUAUGUUACGCCGUUCGGAUCUGC; result = -0.639
Strand = CAAGUCCUGUGCUACACAUCGUAUGUACCGAAUCGGGAAAGGGAGGGAAAAAGGGAAAGUAUUAUGUUACGCCGUUCGGAUCUGCACUUC; result = 0.769
Strand = AAGUCCUGUGCUACACAUCGUAUGUACCGAAUCGGGUUUUUUUGGGUGGGAAAGGGAAAGUAUUAUGUUACGCCGUUCGGAUCUGCACUU; result = 0.69
Strand = CUGUGCUACACAUCGUAUGUACCGAAUCGGGUUUUUUUGGGGUUUUUUUGGGUUUUUUUGGAAAGUAUUAUGUUACGCCGUUCGGAUCUG; result = -0.63
Strand = UGGCCCUGGUGGCAUGCCGGGAGGAAGAGGUGGCCUCAUGGAUCGUGGUGGUCCCGGUGGAAUGUUCAGAGGUGGCCGUGGUGGAGACAG; result = -0.127
Strand = UGGCCCUGGUGGCAUGCGGGGAGGAAGAGGUGGCCUCAUGGAUUGUGGUGGUCCCGGUGGAAUGUUCAGAGGUGGCCGUGGUGGAGACAG; result = 0.483
Strand = AGUCCUGUGCUACACAUCGUAUGUACCGAAUCGGGCCCCCGGGCCCCCGGGCCCCCGGAAAGUAUUAUGUUACGCCGUUCGGAUCUGCAC; result = -0.858

Set 3
Target: Interferon regulatory factor 7, full length, phosphomimetic (IRF7, Homo sapiens, UniProt Q92985, residues 1-503, S101K/S471D/S472D/S475D/S476D/S477D/S483D/S484D/S487D)
Technique: protein-binding microarray
Form: double-stranded DNA, one strand shown
Matrix: in vitro
Tested at: 250 nM
Notes: 60-bp whole probe
With: salmon DNA 0.4 mg/ml
Relative to: random background probes
Reading: higher = stronger binding
Endpoint: log fluorescence
Shared flanks, not repeated: GCCTAGCAC … GTCTTGATTCGCTTGACGCTGCTG
Construct (chain): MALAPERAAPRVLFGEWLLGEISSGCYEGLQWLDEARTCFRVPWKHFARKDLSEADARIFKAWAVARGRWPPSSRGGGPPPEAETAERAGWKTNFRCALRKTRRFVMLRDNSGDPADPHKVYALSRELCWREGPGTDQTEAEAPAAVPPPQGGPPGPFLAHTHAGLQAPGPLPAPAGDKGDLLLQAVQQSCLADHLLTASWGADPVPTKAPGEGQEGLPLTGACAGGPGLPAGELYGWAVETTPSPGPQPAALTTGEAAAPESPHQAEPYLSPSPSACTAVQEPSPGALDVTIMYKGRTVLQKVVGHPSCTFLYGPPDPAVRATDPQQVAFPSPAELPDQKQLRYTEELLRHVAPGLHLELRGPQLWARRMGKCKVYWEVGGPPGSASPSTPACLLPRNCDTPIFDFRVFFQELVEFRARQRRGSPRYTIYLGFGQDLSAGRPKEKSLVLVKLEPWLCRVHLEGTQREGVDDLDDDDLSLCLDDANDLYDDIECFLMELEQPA
Strand = GACGGTATCGACTTTCTGGACGTGCTA; result = 0.716 z-score
Strand = TCACCTTGGCCTCTAGGACTGTGCTAG; result = -0.507 z-score
Strand = GTCGATATCGGGACTGGAGACGTGCTA; result = 0.04 z-score
Strand = TTAGGTTTCGGGTTTCGGTGAGTGCTA; result = 11 z-score
Strand = TAAGATATCAGACTGGATTAGTGCTAG; result = 0.123 z-score
Strand = GACGGTTTCGTCTTTCGGGACGTGCTA; result = 9.21 z-score
Strand = TTAGGTATCGCCACTGGGTTAGTGCTA; result = -0.528 z-score
Strand = TTTGATTTCGGGTTTCGATTAGTGCTA; result = 7.82 z-score
Strand = GACGATATCAGTATTGAGACGTGCTAG; result = -0.0305 z-score
Strand = GACTGTATCGGGACTGGGGACGTGCTA; result = -0.0316 z-score
Strand = TGATCTCTGGTCTTTGTCAGGTGCTAG; result = 0.165 z-score
Strand = GACGGACGGCTTTTCCTGACGTGCTAG; result = -0.655 z-score
Strand = GACGGTATCGCACTGGGGACGTGCTAG; result = 0.0319 z-score
Strand = TTATGTATCGGGACTGGGTTAGTGCTA; result = 0.0455 z-score
Strand = TTAGGTATAGGACTGGGTTAGTGCTAG; result = 0.369 z-score
Strand = CTCTGGGGCTCCAGGGAGAAGTGCTAG; result = -1.15 z-score
Strand = GCTCATTTTTTTTGCAAGCTGTGCTAG; result = 0.811 z-score
Strand = TCACTTTTGCTAATTTTACTGTGCTAG; result = 0.75 z-score
Strand = TTAGGTTTCGGGAGTGGGTTAGTGCTA; result = 1.89 z-score
Strand = TTATGTATCGACACTGGGTTAGTGCTA; result = -0.0714 z-score
Strand = TTTGGACTGGACTTTCGGTTAGTGCTA; result = 0.816 z-score
Strand = TCAGGTTTCCTTATCCTTTAGTGCTAG; result = 3.14 z-score
Strand = TTAGGTTCCCCTTTCCTTTAGTGCTAG; result = 2.69 z-score
Strand = TCATATATACCTGTATAACTGTGCTAG; result = 0.574 z-score

Mixed results
Technique: cross-linking MS
Matrix: cell fractions
With: DSSO
HNRNPA2B1: HNRNPA2B1 (Homo sapiens, UniProt P22626)
Molecule = SRSF3 (Homo sapiens, UniProt P84103); partner = SRSF6 (Homo sapiens, UniProt Q13247); cross-linked residues = T24 to K165
Molecule = WBP4 (Homo sapiens, UniProt O75554); partner = HSP90AA1 (Homo sapiens, UniProt P07900); cross-linked residues = S51 to K513
Molecule = AP2A1 (Homo sapiens, UniProt O95782); partner = HNRNPA2B1; cross-linked residues = S567 to K112
Molecule = MYCBP2 (Homo sapiens, UniProt O75592); partner = HNRNPA2B1; cross-linked residues = Y422 to K104

A few entries again (set 1):
Strand = CUAUUCUCUCAGACGGUGGAAUAUUUGGAAAAAUUUUAAAACAAUUAAAAUUUUAAAGCAAUCUUGGCAGACUAAAACAAGUACAUCUGUACAUGACUGUAUAAUUACGA; result = 0.626
Strand = CAGACCGAGAGGCCAGUUGAUCUGCUCUGUUUUAUACUAGUGACAAUAAAGAUUAUUUUUUGAUACACCUAUGAGUUCUGUCUGGCAAGGCCUGGCUGGCUGAAUCAAGA; result = 0.33
Strand = UUUGGGUAGACAGUCUAAUUCAGUCCAAUUUUAAUCUGCAUUAAAAUAUGCAAUGCUAGACAAAGAUUUUCAAAAUAAAAAGCUAUUAUUUCAGAAAUUAUUUUAAAAGA; result = 0.521
Strand = CUCCAGCCUGGGCAACAGAGUGAGGCCCUGUCUCAAACACAUAAAAGGCAGUGGCCCACGCCUGUAAUCCCAGCACUUUGGGAGGCCAAGGCGGGCAGAUCACGAGGUCA; result = 0.381
